# Published values from different studies.
# Compare with care: the assays were run in different laboratories. ± marks the error that the study gave.
Molecule,cell line,assay,setting,EC50 [nM]
CO[C@@H]1C(=O)O[C@H](C)[C@H](C)/C=C(\C)C[C@H](C)C(=O)N[C@@H](C)C(=O)N(C)[C@H](Cc2c[nH]c3ccccc23)C(=O)N[C@H]1c1ccc(O)cc1,human foreskin fibroblast HFF,"cytotoxicity, viable cells",72 h,109 ± 7
rat urocortin I,rat hippocampal pyramidal neurons,"CREB phosphorylation, agonist, measured: pCREB Ser133",15 min,4
CC(C)C[C@H](NC(=O)[C@@H](N)CC(C)C)C(=O)N[C@@H](CO)C(=O)N[C@H](C(=O)NCC(=O)NCC(=O)O)C(C)C,Melan-A specific CD8 T cell clone,TNF-alpha production,"cross-presentation, Melan-A A27L epitope, together with: mature macrophage-derived dendritic cells",150
OO,primary pig RPE cells,"cell death, ATP content",together with: TNF-alpha 10 ng/mL,125000
CC[P](CC)(CC)=[Au][S][C@@H]1O[C@H](COC(C)=O)[C@@H](OC(C)=O)[C@H](OC(C)=O)[C@H]1OC(C)=O,BT-474,"cell growth or viability, resazurin",72 h,3940
CC[C@H](C)[C@H](NC(=O)[C@H](C)NC(=O)CNC(=O)[C@H](Cc1ccccc1)NC(=O)[C@H](CC(N)=O)NC(=O)[C@H](CC(N)=O)NC(=O)[C@H](CO)NC(=O)[C@H](CO)NC(=O)[C@H](Cc1c[nH]cn1)NC(=O)[C@@H](NC(=O)[C@H](CC(C)C)NC(=O)[C@H](Cc1ccccc1)NC(=O)[C@H](CC(N)=O)NC(=O)[C@H](C)NC(=O)[C@H](CC(C)C)NC(=O)[C@H](CCCNC(=N)N)NC(=O)[C@H](CCC(N)=O)NC(=O)[C@@H](NC(=O)[C@H](C)NC(=O)[C@@H]1CSSC[C@H](NC(=O)[C@@H](N)CCCCN)C(=O)N[C@@H](CC(N)=O)C(=O)N[C@@H]([C@@H](C)O)C(=O)N[C@@H](C)C(=O)N[C@@H]([C@@H](C)O)C(=O)N1)[C@@H](C)O)C(C)C)C(=O)N[C@@H](CC(C)C)C(=O)N[C@@H](CO)C(=O)N[C@@H](CO)C(=O)N[C@H](C(=O)N[C@@H](CC(N)=O)C(=O)N[C@H](C(=O)NCC(=O)N[C@@H](CO)C(=O)N[C@@H](CC(N)=O)C(=O)N[C@H](C(=O)N[C@@H](Cc1ccc(O)cc1)C(N)=O)[C@@H](C)O)C(C)C)[C@@H](C)O,INS1,"cell growth or viability, fluorescence",24 h,27000
CC(C)(C)c1cc(C=C(C#N)C#N)cc(Br)c1O,A2780,"cell proliferation, resazurin",72 h,21300
COc1cc(Nc2ncc(F)c(Nc3ccc4c(n3)NC(=O)C(C)(C)O4)n2)cc(OC)c1OC,HUVEC,VEGF-dependent tube formation,,47.3 ± 11
CC(C)C[C@@H](C=O)NC(=O)[C@H](CC(C)C)NC(=O)[C@H](CC(C)C)NC(=O)OCc1ccccc1,HeLa (transiently transfected),N-cyclin B-luciferase fusion level,,5000
O=c1c(O)c(N2CCN(Cc3ccc(Br)cc3F)CC2)oc2ccccc12,HFL1 transfected with N protein,"Smad reporter gene, inhibitor, CAGA luciferase reporter","24 h, together with: N protein",2990
F[P-](F)(F)(F)(F)F.F[P-](F)(F)(F)(F)F.[Ru+2].c1ccc(-c2ccccn2)nc1.c1ccc(-c2ccccn2)nc1.c1csc(-c2ccc(-c3cc4cccnc4c4ncccc34)s2)c1,SK-MEL-28,"cell viability, resazurin","16 h drug-to-light interval, together with: visible light 100 J/cm2",214 ± 2
C[C@@]12OC(=O)[C@]1([C@@H](O)[C@@H]1C=CCCC1)NC(=O)[C@@H]2CCCl,Jurkat,"DNA fragmentation, propidium iodide flow cytometry","24 h, about 50% fragmentation",25
CCC[C@@H](C)[C@H](O)[C@H](C)[C@H]1OC(=O)[C@H]([C@@H](C)O)NC(=O)[C@H]([C@@H](C)CC)OC(=O)[C@H](C)[C@H](O)[C@H]([C@@H](C)CC)NC(=O)[C@@]2(C)CSC(=N2)[C@@]2(C)CSC(=N2)c2csc(n2)C[C@H](OC)[C@@H]1C,mouse neocortical neurons,"spontaneous Ca2+ oscillations, inhibitor, fluo-3 Ca2+ imaging",,79.8

# Repeated from above:
Molecule,cell line,assay,setting,EC50 [nM]
OO,primary pig RPE cells,"cell death, ATP content",together with: TNF-alpha 10 ng/mL,125000
